Results pooled from the literature.
Parts stem from different laboratories: compare values within a part only. Changes are numbered by the printed parent chain.

Block 1 — target: MAFF, bZIP domain (human); technique: DHFR protein complementation; matrix: yeast; relative to: wild-type JUN-FOS pair; direction: higher = stronger binding
Setting: single substitutions, most at no-binding floor
Parent: JUN, bZIP domain (human); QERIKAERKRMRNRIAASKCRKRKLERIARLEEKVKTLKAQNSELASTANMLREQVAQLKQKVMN; partner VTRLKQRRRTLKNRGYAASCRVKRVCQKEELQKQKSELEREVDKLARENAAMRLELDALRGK
| Change | binding fitness [natural log] |
| --- | --- |
| A40H | -1.15 |
| E54R | -1.45 |
| R30S | -1.47 |
| I28D | -1.33 |
| T48L | -1.41 |
| R30L | -1.35 |
| S43I | -1.42 |
| A57H | -1.46 |
| L45R | -1.53 |
| N42L | -1.17 |
| N42F | -1.32 |
| S43H | -1.49 |
| Q55C | -1.45 |
| A29K | -1.5 |
| E54A | -1.45 |
| K36R | -1.33 |

Block 2 — target: CCNB1, cyclin fold, Cln2 fusion (human); technique: yeast growth competition, sequencing; matrix: yeast; setting: weak parent motif; relative to: not given; direction: higher = stronger binding
Parent: CDKN1A docking peptide (human); SKACRRLFGPVDS
| Change | normalised enrichment score |
| --- | --- |
| SKACRRLFGPVHS [D12H] | -0.0762 |
| SKDCRRLFGPVDS [A3D] | -0.178 |
| SKACRRLWGPVDS [F8W] | -0.0355 |
| SKACRRLFGPVLS [D12L] | 0.119 |
| SKACRRLFGPNDS [V11N] | 0.268 |
| SKACRRLFGHVDS [P10H] | 0.21 |
| SKACRRLFGQVDS [P10Q] | -0.034 |
| SKACRRLFGPADS [V11A] | 0.787 |
| SKACRRLVGPVDS [F8V] | 0.575 |
| SKAGRRLFGPVDS [C4G] | 0.172 |
| SKACRNLFGPVDS [R6N] | 0.195 |
| SKACRRLFGPVTS [D12T] | 0.247 |
| SKACMRLFGPVDS [R5M] | 0.0571 |
| SKACYRLFGPVDS [R5Y] | 0.0105 |
| SKALRRLFGPVDS [C4L] | 0.0744 |
| SKANRRLFGPVDS [C4N] | 0.396 |
| SKACRRLFGPTDS [V11T] | 0.503 |
| SKACRRLFIPVDS [G9I] | 1.07 |

Block 3 — technique: Spec-seq; molecule type: double-stranded DNA, one strand shown; matrix: in vitro; tested at: not given; setting: whole probe, mean of replicates; relative to: not given; direction: lower = stronger binding; all sequences stand within: GAGTCGTCTCGTCAGCAC … CCGTAGAGCACTCAGGTC
Target: Transcription factor SOX-2, HMG box (Sox2, Mus musculus, UniProt P48432, residues 41-119)
Chain of UniProt P48432 (41-119, looked up): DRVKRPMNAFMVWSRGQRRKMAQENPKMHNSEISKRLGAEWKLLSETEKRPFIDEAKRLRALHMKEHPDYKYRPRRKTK
| Strand | relative binding energy [ln ratio] |
| --- | --- |
| CATAGCA | -0.262 |
| GACAGTT | 0.553 |
| CATAACT | 0.0719 |
| CATCTCG | 0.814 |
| GCCCGTT | 0.956 |
| CTTGGTT | 0.506 |
| TGAGGTT | 0.771 |
| CATTTGC | 0.168 |
| CATTGGT | -0.326 |
| AAAAGTT | -1.44 |
| CATTGGG | -0.228 |
| ACTCGTT | 0.446 |
| CATACAG | -0.823 |
| AGATGTT | 0.396 |
| GTCAGTT | 0.611 |
| CATTAGG | -0.191 |
| CATGTAT | 0.0398 |
| CATTAGT | -0.173 |
| CATAAAA | -0.615 |
| CATCCGG | 0.863 |
| CCCTGTT | 0.194 |
| CATGTGA | 0.433 |
| CATCAGA | 0.429 |
| CCGTGTT | 0.675 |
| CAATGTT | -0.672 |

Block 4 — technique: RNA Bind-n-Seq; molecule type: RNA; matrix: in vitro; tested at: 365 nM; relative to: no-protein control; direction: higher = stronger binding
Target: RNA binding protein fox-1 homolog 2, RRM domain, GST-SBP tag (RBFOX2, Homo sapiens, UniProt O43251-10, residues 100-194)
Setting: natural RNA segment, single round, ends assumed
All sequences stand within: GGGAGUUCUACAGUCCGACGAUC … UGGAAUUCUCGGGUGCCAA
Residues (chain): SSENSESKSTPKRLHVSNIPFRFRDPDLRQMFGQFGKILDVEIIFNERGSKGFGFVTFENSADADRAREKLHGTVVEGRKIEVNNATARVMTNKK
| Strand | RBNS enrichment (R) |
| --- | --- |
| CUGAUUUGAUAGAUUUUUCUUUUUAAAUAAAACUUCACAGCCUGCACAGUUGUUACGCAUACUACAUGGUAUGUUACAAUUAGGGUUUCCUUGCCUCUUUACAGUACACU | 0.54 |
| AGGUGCCAGACUUUCUGUUCUGUCUGCCAUGGGUUUGUCCAGCUCAGGUAGCUCUAGGAGCACCAUCCUGCCCUAGCAGAGCCCAGGCCUUGCCCUCAUGAAGCAUCAUU | 0.278 |
| UUUGUGUACAAAAGGCAGGAAAAAGUAUUUGAUACCACUGUACAUAAGAGUUUUCAGAGAUUUCAUAUAUAUUAUAUAUCUUUUACAGAGACUAUUUUAAUCCUUAGCGC | 0.546 |
| CAUGCCAGUGGGUGUGACUCCUUCAUUUUUCCUUCUCCCUUCCCUUUGGACAGUGUUACAGUGAACACUUAGCAUCCUGUUUUUGGUUGGUAGUUAAGCAAACUGACAUU | 0.358 |
| CUUUAUCCUGCACUCAGUACCCGAACUCACUUCAGUAUGCUUACUGAGGCCAUGAGAACCUGAGGGGCAUCUGCCCAGGACAGGAGCCAUGGCAUAUGACAAAGACCAAU | 0.339 |
| UCGAUUCUACUUUAGAAUGAGAGUGUGAAAUAGACAUUUGUAAAUGUAAAACUUUUAAGGUAUAUCAUUAUAACUGAAGGAGAAGGUGCCCCAAAAUGCAAGAUUUUCCA | 0.818 |
| GAGGGAAGCACCUAACCUCUGCUGCUUUGCAAGGAAGGCUCCUUGCAAUCUGGAGAGAGACUCGGUAGGAGUGUGUUGUCUUCUACUCGCAGUGCAUUGAAGGACCCAAG | 0.903 |
| CUGGAAUUAAAUGACCGACCAACACAGUACCAAGAGGAUGAAGAGAAGAUGUUUUGCGUUGCUACGUGAAUCAGUGGAUGACUCAUAUUUCACUUGCAUAUGAAAUAUAA | 0.687 |

Block 5 — technique: protein binding microarray; molecule type: double-stranded DNA, one strand shown; matrix: in vitro; tested at: not given; relative to: not given; direction: higher = stronger binding
Target: Histone acetyltransferase KAT6A, winged helix 1, GST fusion (KAT6A, Homo sapiens, UniProt Q92794, residues 1-85)
Setting: 8-mer, flanks averaged, mean of 2 arrays, mostly near background
Residues (chain): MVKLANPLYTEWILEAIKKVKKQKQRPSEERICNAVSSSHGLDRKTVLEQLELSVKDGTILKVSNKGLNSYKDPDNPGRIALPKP
| Strand | E-score |
| --- | --- |
| CTTTGATA | -0.149 |
| CATTCAAG | -0.143 |
| ACCCCCTA | -0.248 |
| CCAGTATA | -0.152 |
| TATGTGCA | -0.111 |
| ACTTAACA | -0.162 |
| CCTAGTTC | -0.189 |
| GACGCGTC | 0.378 |
| AGAATAGC | 0.0852 |
| ATTCGATA | -0.0587 |
| CAGCGGAC | 0.24 |
| GATTGCCC | -0.0614 |
| AAACACGC | 0.256 |
| CCTCTCCA | -0.167 |
| GATTGACA | -0.107 |
| AATTCGGC | -0.00104 |
| AGCTGCCT | -0.0504 |
| GTGCCAAC | -0.17 |
| GGAACTCC | -0.0344 |
| CCAATAGA | -0.259 |
| CCCCGGTA | 0.226 |
| AAAGGCTT | -0.0365 |
| AGACTTTC | -0.165 |
| GAAGGACC | 0.0178 |

Repeated from above (block 4):
| Strand | RBNS enrichment (R) |
| --- | --- |
| CUGGAAUUAAAUGACCGACCAACACAGUACCAAGAGGAUGAAGAGAAGAUGUUUUGCGUUGCUACGUGAAUCAGUGGAUGACUCAUAUUUCACUUGCAUAUGAAAUAUAA | 0.687 |
| GAGGGAAGCACCUAACCUCUGCUGCUUUGCAAGGAAGGCUCCUUGCAAUCUGGAGAGAGACUCGGUAGGAGUGUGUUGUCUUCUACUCGCAGUGCAUUGAAGGACCCAAG | 0.903 |
| CAUGCCAGUGGGUGUGACUCCUUCAUUUUUCCUUCUCCCUUCCCUUUGGACAGUGUUACAGUGAACACUUAGCAUCCUGUUUUUGGUUGGUAGUUAAGCAAACUGACAUU | 0.358 |
| UUUGUGUACAAAAGGCAGGAAAAAGUAUUUGAUACCACUGUACAUAAGAGUUUUCAGAGAUUUCAUAUAUAUUAUAUAUCUUUUACAGAGACUAUUUUAAUCCUUAGCGC | 0.546 |
| CUUUAUCCUGCACUCAGUACCCGAACUCACUUCAGUAUGCUUACUGAGGCCAUGAGAACCUGAGGGGCAUCUGCCCAGGACAGGAGCCAUGGCAUAUGACAAAGACCAAU | 0.339 |
| UCGAUUCUACUUUAGAAUGAGAGUGUGAAAUAGACAUUUGUAAAUGUAAAACUUUUAAGGUAUAUCAUUAUAACUGAAGGAGAAGGUGCCCCAAAAUGCAAGAUUUUCCA | 0.818 |
